Measurements pooled from the literature.
Lines come from different studies, so protocols differ. ± marks the error that the study gave.

SMILES | target | assay | system | conditions | scale | endpoint | value
O=C(c1ccc(F)cc1)N1CCCC(c2nc(-c3ncccn3)no2)C1 (stereo not shown) | mGluR5 | calcium fluorescence, positive allosteric modulator | mGluR5-expressing cells | added: glutamate EC20 |  | EC50 | > 10 µM
CC(C)(C)C(=O)Nc1ccc2[nH]c(CN3CCC(N(CCCN4CCOCC4)CC4OC(n5cnc6c(N)ncnc65)C(O)C4O)CC3)nc2c1 (stereo not shown) | DOT1L R231Q | Western blot | H460 R231Q cells | concentration not given | baseline: untreated | H3K79me2 level | decreased
Cc1cc(C)nc(NC(=S)N2CCN(c3ccncc3)CC2)c1 | panel of other dehydrogenases | enzyme activity |  | concentration not given |  | inhibition | inactive
Cc1sc2ncn(CC(=O)N3CCCC3)c(=O)c2c1-c1cccc(Br)c1 | NMDA receptor, mouse | single-channel current, outside-out patch | cortical neurons | concentration not given, holding -80 mV, added: Ca2+ 0.5 mM |  | unitary current amplitude 2 | -3.17 ± 0.26 pA
CCCCCC(C)NCC(=O)O (stereo not shown) | DNA | UV-vis absorption titration |  | pH 7.4, room temperature |  | apparent binding constant | 1.33 mM⁻¹
O=C(c1ccc(F)cc1)N1CCCC(c2nc(-c3ccccn3)no2)C1 (stereo not shown) | mGluR5 | calcium fluorescence, positive allosteric modulator | mGluR5-expressing cells | added: glutamate EC20 | baseline: maximal glutamate response | Emax | 109 ± 2%
COc1ccc(N2C(=O)C=CC2=O)cc1 | DPP3 (Candida albicans) | GFP fluorescence | Candida albicans, BWP17 DPP3-GFP | 1 µg/mL, 4 h | baseline: untreated | DPP3 expression | 2.49 fold
CNC(=O)C1CCN(c2ccccc2NC(=O)c2ccc(-c3cc(O)ccc3C)c(C)n2)CC1 | human EPHA2/EPHA4 | phosphorylation, inhibitor, Western blot | A673 | added: EFNA5 0.5 µg/mL | lowest concentration | inhibitory concentration | 100 nM
CC[C@H](C)[C@H](NC(=O)[C@H](CC(C)C)NC(=O)[C@@H](NC(=O)[C@@H](NC(=O)[C@H](CC(C)C)NC(=O)[C@H](CCCCN)NC(=O)[C@@H](N)CCCCN)[C@@H](C)CC)[C@@H](C)O)C(=O)N[C@@H](Cc1ccccc1)C(=O)N[C@@H](CCCCN)C(=O)N[C@@H](CCCCN)C(=O)N[C@H](C(=O)N[C@@H](CCCNC(=N)N)C(=O)N[C@@H](CCC(=O)O)C(=O)N[C@@H](CCCCN)C(=O)N[C@@H](CCCCN)C(=O)N[C@@H](CCCCN)C(=O)N[C@@H](CCC(=O)O)C(=O)N[C@@H](CS)C(=O)N[C@@H](CC(C)C)C(=O)N[C@H](C(=O)O)C(C)C)[C@@H](C)O | voltage-gated sodium channel | resurgent sodium current, kinetic model fit | mouse CA3 neurons | 200 µM, membrane potential -30 mV |  | rate constant kIO | 7 s⁻¹
O=C(Nc1ccc(C(F)(F)F)cc1)c1cc(Cl)ccc1O | androgen receptor | Western blot | CWR22Rv1 | 1 µM, 16 h |  | AR protein level | inhibited
CC1OC(Oc2c(-c3ccc(O)cc3)oc3cc(O)cc(O)c3c2=O)C(OC(=O)C=Cc2ccc(O)cc2)C(O)C1OC(=O)C=Cc1ccc(O)cc1 (stereo not shown) | CCR2 N199A |  | CHO-K1 | concentration not given | baseline: wild type over N199A | binding affinity loss | 2 fold
O=C(Nc1cc(C(F)(F)F)cc(C(F)(F)F)c1)c1cc(Cl)ccc1O | androgen receptor | Western blot | CWR22Rv1 | 1 µM, 16 h |  | AR protein level | inhibited
O=C1CC(c2ccoc2)c2ccc(NC(=O)c3ccccc3)cc2N1 (stereo not shown) | recombinant aromatase CYP19 | absorption spectroscopy |  | 100 µM, no androstenedione |  | Soret peak wavelength | 420 nm
CCNS(=O)(=O)c1ccc(COc2ccc3nc4ccc(=O)cc-4oc3c2)cc1 | human DDR2 T654I |  | HEK293 | concentration not given, 4 h, added: collagen I 30 µg/mL |  | DDR2 phosphorylation | inhibited
Cn1c(=O)oc2ccc(-c3ccc(CC(C#N)NC(=O)C4CNCCCO4)c(F)c3)cc21 (stereo not shown) | neutrophil elastase (human) | neutrophil-normalised activity | human, whole blood | 40 mg once daily, day 28 |  | maximal reduction | 76.4%
Cc1nc(C)c(C=[N+]([O-])C(C)(C)C)nc1C | mitochondrial complex I, rat |  | cerebellar granule neurons, rat | 100 µM, added: MPP+ |  | complex I activity increase | 35.6%
CCCNCC(=O)O | DNA | UV-vis absorption titration |  | pH 7.4, room temperature |  | apparent binding constant | 1.11 mM⁻¹
COc1c(Cl)c(/C=C(\C)C(=O)O)c(OC)c2ccccc12 | NF-κB and HIF1α | luciferase reporter | human cells | up to 100 µM |  | reporter activity | inactive
CC[C@H](C)[C@H](NC(=O)[C@H](Cc1ccccc1)NC(=O)[C@@H](NC(=O)[C@@H](NC(=O)[C@H](CC(C)C)NC(=O)[C@H](CCCCN)NC(=O)[C@@H](N)CCCCN)[C@@H](C)CC)[C@@H](C)O)C(=O)N[C@@H](CC(C)C)C(=O)N[C@@H](CCCCN)C(=O)N[C@@H](CCCCN)C(=O)N[C@H](C(=O)N[C@@H](CCCNC(=N)N)C(=O)N[C@@H](CCC(=O)O)C(=O)N[C@@H](CCCCN)C(=O)N[C@@H](CCCCN)C(=O)N[C@@H](CCCCN)C(=O)N[C@@H](CCC(=O)O)C(=O)N[C@@H](CS)C(=O)N[C@@H](CC(C)C)C(=O)N[C@H](C(=O)O)C(C)C)[C@@H](C)O | voltage-gated sodium channel | resurgent sodium current, kinetic model fit | mouse CA3 neurons | 200 µM, membrane potential -10 mV |  | rate constant kIO | 8 s⁻¹
N=C(N)SCc1ccccc1CSC(=N)N | TDO (human) | western blot | A-172 | concentration not given |  | protein level | no effect
CC[C@H](C)[C@H](NC(=O)[C@H](C)NC(=O)[C@@H](NC(=O)[C@@H](NC(=O)[C@H](CC(C)C)NC(=O)[C@H](CCCCN)NC(=O)[C@@H](N)CCCCN)[C@@H](C)CC)[C@@H](C)O)C(=O)N[C@@H](CC(C)C)C(=O)N[C@@H](CCCCN)C(=O)N[C@@H](CCCCN)C(=O)N[C@H](C(=O)N[C@@H](CCCNC(=N)N)C(=O)N[C@@H](CCC(=O)O)C(=O)N[C@@H](CCCCN)C(=O)N[C@@H](CCCCN)C(=O)N[C@@H](CCCCN)C(=O)N[C@@H](CCC(=O)O)C(=O)N[C@@H](CS)C(=O)N[C@@H](CC(C)C)C(=O)N[C@H](C(=O)O)C(C)C)[C@@H](C)O | voltage-gated sodium channel | resurgent sodium current, kinetic model fit | mouse CA3 neurons | 200 µM, membrane potential -30 mV |  | rate constant kOI | 147 s⁻¹
CC(C)C[C@H](NC(=O)[C@@H]1CCC(=O)N1)C(=O)N[C@H](C(=O)N[C@@H](Cc1ccccc1)C(=O)N[C@H](C(=O)N[C@@H](CO)C(=O)N[C@@H](CO)C(=O)N[C@@H](Cc1c[nH]c2ccccc12)C(=O)NCC(N)=O)[C@@H](C)O)[C@@H](C)O | AKHR Bombyx mori EGFP | agonist | HEK293 stable AKHR-EGFP | 10 nM, 37 °C |  | time to maximum internalization | ≤ 30 min
